Assay results collected from several papers.
Each line is one published result; not all experiments were run side by side. ± marks the error that the study gave.
cyp121: Mycocyclosin synthase (cyp121, Mycobacterium tuberculosis, UniProt P9WPP7)

Sequences of proteins named here, by UniProt entry; tags and fusion partners are left off. A change or cut given only in a name is not applied to a line headed by its entry. Residues count along the entry.
UniProt P9WPP7, whole entry: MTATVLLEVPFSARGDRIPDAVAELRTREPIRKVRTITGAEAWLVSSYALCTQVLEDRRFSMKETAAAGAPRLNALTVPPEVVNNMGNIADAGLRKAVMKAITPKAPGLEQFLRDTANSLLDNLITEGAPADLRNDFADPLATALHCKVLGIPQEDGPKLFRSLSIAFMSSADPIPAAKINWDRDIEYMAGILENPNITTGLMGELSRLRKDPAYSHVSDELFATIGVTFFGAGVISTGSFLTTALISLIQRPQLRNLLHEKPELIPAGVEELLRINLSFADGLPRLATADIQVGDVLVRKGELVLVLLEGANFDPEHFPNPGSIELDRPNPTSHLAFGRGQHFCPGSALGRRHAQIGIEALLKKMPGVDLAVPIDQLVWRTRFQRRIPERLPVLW
UniProt O39928, 2424-3014 limits assumed: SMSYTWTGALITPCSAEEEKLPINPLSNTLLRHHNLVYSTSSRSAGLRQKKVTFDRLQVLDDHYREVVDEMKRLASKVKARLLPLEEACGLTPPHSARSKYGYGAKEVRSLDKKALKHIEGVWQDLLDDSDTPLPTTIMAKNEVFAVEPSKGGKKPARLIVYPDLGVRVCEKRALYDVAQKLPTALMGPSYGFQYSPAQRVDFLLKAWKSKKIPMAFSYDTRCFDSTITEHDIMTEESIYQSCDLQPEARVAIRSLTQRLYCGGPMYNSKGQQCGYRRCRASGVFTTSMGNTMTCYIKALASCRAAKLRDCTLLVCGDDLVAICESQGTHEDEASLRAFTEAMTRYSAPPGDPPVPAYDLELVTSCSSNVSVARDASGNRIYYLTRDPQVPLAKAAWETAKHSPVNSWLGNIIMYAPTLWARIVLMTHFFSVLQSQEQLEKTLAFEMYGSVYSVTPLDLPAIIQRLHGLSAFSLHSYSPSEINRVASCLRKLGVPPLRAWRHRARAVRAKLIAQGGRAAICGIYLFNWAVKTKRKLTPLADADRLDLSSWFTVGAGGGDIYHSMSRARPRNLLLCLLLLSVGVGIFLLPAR
UniProt P06241, whole entry, looked up, stated change not applied: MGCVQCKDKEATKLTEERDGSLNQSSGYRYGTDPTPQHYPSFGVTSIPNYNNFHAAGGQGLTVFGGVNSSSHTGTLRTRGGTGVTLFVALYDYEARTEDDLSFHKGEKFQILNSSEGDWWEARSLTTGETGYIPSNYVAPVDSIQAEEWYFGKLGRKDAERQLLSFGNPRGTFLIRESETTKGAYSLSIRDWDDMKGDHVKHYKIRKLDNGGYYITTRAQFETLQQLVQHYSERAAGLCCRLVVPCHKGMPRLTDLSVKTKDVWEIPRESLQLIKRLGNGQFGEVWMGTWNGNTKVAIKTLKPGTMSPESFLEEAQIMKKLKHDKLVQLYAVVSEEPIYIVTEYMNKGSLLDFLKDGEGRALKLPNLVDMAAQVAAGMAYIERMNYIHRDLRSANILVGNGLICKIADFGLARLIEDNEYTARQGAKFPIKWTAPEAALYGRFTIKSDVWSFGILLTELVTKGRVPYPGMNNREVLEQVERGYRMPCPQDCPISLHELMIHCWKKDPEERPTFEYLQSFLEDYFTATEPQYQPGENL
UniProt P08312, whole entry: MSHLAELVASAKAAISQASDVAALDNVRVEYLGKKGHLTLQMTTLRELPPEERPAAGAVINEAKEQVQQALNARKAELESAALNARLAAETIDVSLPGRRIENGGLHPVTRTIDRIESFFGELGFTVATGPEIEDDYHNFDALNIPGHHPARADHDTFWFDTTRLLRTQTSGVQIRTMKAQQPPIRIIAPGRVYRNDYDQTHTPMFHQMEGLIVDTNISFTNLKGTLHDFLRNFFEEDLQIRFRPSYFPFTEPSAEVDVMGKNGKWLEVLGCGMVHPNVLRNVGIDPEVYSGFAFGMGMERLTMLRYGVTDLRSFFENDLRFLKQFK
UniProt P07948, whole entry Y508F, looked up: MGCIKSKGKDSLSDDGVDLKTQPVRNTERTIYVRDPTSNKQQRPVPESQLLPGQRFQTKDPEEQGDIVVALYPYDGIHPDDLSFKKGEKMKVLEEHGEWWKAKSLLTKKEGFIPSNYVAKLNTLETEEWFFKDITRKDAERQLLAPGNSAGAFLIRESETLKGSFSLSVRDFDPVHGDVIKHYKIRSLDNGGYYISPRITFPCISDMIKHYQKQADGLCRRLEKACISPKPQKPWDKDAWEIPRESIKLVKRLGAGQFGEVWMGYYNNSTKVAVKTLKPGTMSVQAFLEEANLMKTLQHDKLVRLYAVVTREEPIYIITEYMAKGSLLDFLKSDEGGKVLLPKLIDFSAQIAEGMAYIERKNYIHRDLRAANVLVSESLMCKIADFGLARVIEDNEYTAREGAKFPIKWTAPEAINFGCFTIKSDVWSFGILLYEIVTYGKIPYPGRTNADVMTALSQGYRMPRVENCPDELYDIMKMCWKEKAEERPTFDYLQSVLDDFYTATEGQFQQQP
UniProt O15245, whole entry G465R: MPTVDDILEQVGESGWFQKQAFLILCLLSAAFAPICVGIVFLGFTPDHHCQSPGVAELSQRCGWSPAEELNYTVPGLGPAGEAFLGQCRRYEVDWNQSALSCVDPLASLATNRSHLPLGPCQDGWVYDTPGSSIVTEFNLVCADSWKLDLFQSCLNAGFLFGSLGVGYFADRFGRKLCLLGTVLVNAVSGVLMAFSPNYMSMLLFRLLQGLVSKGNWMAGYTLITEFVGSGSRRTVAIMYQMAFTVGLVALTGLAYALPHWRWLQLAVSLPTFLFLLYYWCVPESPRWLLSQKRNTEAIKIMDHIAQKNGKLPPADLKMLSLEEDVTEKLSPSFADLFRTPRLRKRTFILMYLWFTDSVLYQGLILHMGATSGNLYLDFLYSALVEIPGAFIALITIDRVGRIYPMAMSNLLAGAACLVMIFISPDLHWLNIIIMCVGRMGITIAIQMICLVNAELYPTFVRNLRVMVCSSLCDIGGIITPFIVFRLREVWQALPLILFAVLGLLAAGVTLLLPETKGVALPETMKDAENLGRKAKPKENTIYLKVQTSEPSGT
UniProt P35372, whole entry: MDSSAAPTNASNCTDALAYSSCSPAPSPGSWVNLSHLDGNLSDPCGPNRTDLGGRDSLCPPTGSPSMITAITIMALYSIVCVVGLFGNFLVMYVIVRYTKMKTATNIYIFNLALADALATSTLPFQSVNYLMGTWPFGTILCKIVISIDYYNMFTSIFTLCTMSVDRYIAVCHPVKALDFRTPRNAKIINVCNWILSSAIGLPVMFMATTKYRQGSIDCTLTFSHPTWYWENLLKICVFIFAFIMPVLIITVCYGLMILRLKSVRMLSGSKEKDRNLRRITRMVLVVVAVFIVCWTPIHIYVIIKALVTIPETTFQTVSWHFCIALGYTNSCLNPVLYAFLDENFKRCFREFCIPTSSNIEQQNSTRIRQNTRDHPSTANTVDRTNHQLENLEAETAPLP
UniProt P07395, whole entry partner: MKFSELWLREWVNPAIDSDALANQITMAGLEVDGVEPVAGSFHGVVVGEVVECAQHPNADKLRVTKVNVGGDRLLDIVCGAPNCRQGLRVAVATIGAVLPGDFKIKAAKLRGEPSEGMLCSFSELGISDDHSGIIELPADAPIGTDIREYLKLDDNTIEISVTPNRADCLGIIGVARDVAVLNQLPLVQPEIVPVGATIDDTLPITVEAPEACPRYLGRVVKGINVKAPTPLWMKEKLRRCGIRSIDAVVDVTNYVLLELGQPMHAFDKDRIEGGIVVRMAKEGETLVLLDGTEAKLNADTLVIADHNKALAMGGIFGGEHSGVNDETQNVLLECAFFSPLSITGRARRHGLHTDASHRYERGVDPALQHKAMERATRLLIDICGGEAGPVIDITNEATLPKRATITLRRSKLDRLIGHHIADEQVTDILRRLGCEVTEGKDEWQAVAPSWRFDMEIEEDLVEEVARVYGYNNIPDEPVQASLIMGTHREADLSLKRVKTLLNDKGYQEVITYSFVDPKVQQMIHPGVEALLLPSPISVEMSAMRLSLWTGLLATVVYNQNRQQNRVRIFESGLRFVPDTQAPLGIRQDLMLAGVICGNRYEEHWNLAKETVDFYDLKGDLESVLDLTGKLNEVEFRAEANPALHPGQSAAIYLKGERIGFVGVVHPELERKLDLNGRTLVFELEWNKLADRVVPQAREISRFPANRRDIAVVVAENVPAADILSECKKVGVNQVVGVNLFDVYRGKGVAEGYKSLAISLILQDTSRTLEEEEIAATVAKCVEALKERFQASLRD

Compound = CCCCCCCCCCCCNC(=O)N[C@H](C(=O)N[C@H]1/C=C/CCNC(=O)/C=C/[C@H](C)NC1=O)C(C)C; target = PSMB7 (Homo sapiens, UniProt Q99436); assay = trypsin-like activity, inhibitor, Proteasome-Glo; test system = U-266; conditions = 24 h; quantity = Ki; value = 170 ± 47.9 nM
Compound = O=c1ccn([C@@H]2O[C@H](COP(=O)(O)OP(=O)(O)OP(=O)(O)O)[C@@H](O)[C@]2(F)Br)c(=O)[nH]1; target = Genome polyprotein, NS5B polymerase (Hepatitis C virus genotype 5a, UniProt O39928); assay = polymerase activity, inhibitor; test system = Hepatitis C virus, genotype 5a; quantity = IC50; value = 1200 nM
Compound = Oc1cccc(-c2ccc(Cn3ccnc3)cc2)c1; target = cyp121; assay = binding; quantity = Kd; value = 34000 ± 8900 nM
Compound = Nc1ncnc2c1c(-c1cnc3[nH]ccc3c1)nn2C1CCCC1; target = FYN (Homo sapiens, UniProt P06241, S254P/T250P/T253P); assay = inhibitor; quantity = Ki; value = 5.8 nM
Compound = C1=C(CCNCc2ccccc2)CCCC1; target = pheS, with beta subunit (Escherichia coli, UniProt P08312); assay = phenylalanine activation, inhibitor; quantity = IC50; value = 3.5 µg/mL
Compound = CCC(c1ccc(-c2ccc3cc(OC)ccc3c2)cc1)n1ccnc1 (stereo not shown); target = cyp121; conditions = racemate; quantity = Kd; value = 500 nM
Compound = CC(C)n1nc(-c2ccc3c(c2)OCO3)c2c(N)ncnc21; target = LYN (Homo sapiens, UniProt P07948, Y508F); assay = inhibitor; quantity = Ki; value = 180 nM
Compound = C[C@@H](Cc1ccc(O)cc1)NC[C@@H](O)c1cc(O)cc(O)c1; target = SLC22A1 (Homo sapiens, UniProt O15245, G465R); assay = binding, frontal displacement chromatography; test system = immobilized SLC22A1 column; conditions = with: [3H]MPP+ marker; quantity = Kd; value = 6350 nM
Compound = CCC(c1ccc(-c2ccc(OC)cc2)c2cccnc12)n1ccnc1 (stereo not shown); target = cyp121; assay = binding; quantity = Kd; value = 2500 ± 700 nM
Compound = COC(=O)[C@@H]1C=C(OC(=O)c2ccc(O)c(Br)c2)C(=O)[C@H]2[C@@]1(C)CC[C@H]1C(=O)O[C@H](c3ccoc3)C[C@]21C; target = OPRM1 (Homo sapiens, UniProt P35372); assay = forskolin-induced cAMP inhibition, agonist; test system = CHO-K1 expressing human MOR; quantity = EC50; value = 17 ± 7 nM

Repeated from above:
Compound = C1=C(CCNCc2ccccc2)CCCC1; target = pheS, with beta subunit (Escherichia coli, UniProt P08312); assay = phenylalanine activation, inhibitor; quantity = IC50; value = 3.5 µg/mL
